# Measured values from different studies.
# Protocols differ between the studies behind these lines.
# Sample: plasma
Structure (SMILES),test,system,setting,how to read,quantity,result
COc1ccc([C@@H](O)c2cc(-c3ncnc4cc(N5CCOCC5)ccc34)c(F)cc2Cl)nn1,mixed model,healthy volunteers,"oral, 100 mg, fasted oral suspension test arm",,Cmax geometric LS mean,480 ng/mL
N[C@@H]1c2ccccc2OC12CCN(c1cnc3c(N4CCCc5ncccc54)n[nH]c3n1)CC2,,advanced metastatic solid tumour patients,"oral, 50 mg once daily, cycle 1 day 15, geometric mean",,Cmax,635 ng/mL
NC(=O)c1[nH]cnc1N,,leiomyosarcoma patients,"intravenous, dose not given, cycle 2 day 1, added: dacarbazine staggered",relative to: cycle 1 day 1,Cmax increase,69.4%
CCCCCCCOc1ccc(CCC(N)(CO)CO)cc1C(F)(F)F.Cl,,healthy men,"oral, 0.75 mg, day 21",,Cmax,4.68 ng/mL
C=CC(=O)NC1CCN(c2ncc3ncnc(Nc4ccc(Oc5ccc6c(c5)ncn6C)c(C)c4)c3n2)CC1,,healthy male volunteers,"oral solution, 60 mg",relative to: compound over total radioactivity,Cmax ratio,0.804
N#CCNC(=O)c1ccc(-c2ccnc(Nc3ccc(N4CCOCC4=O)cc3)n2)cc1,,healthy volunteers,"dose not given, added: rifampin multiple-dose",relative to: with rifampin over alone,Cmax geometric mean ratio,139%
CNC(=O)c1cc(Oc2ccc(NC(=O)Nc3ccc(Cl)c(C(F)(F)F)c3)cc2)cc[n+]1[O-],,patients,"oral, geometric mean, added: rifampin",relative to: with rifampin over without rifampin,Cmax ratio,1.59
CC[C@H](C)CCCCC(=O)N[C@@H](CCN)C(=O)N[C@H](C(=O)N[C@@H](CCN)C(=O)N[C@H]1CCNC(=O)[C@H]([C@@H](C)O)NC(=O)[C@H](CCN)NC(=O)[C@H](CCN)NC(=O)[C@H](CC(C)C)NC(=O)[C@@H](Cc2ccccc2)NC(=O)[C@H](CCN)NC1=O)[C@@H](C)O,,long-term haemodialysis patients,"IV, 0.75 mg/kg",relative to: healthy subjects,Cmax reduction,29%
N#CCNC(=O)c1ccc(-c2ccnc(Nc3ccc(N4CCOCC4)cc3)n2)cc1,,healthy volunteers,"oral, dose not given, added: rifampin single-dose",relative to: compound alone,Cmax increase,40%
O=C(c1cccnc1-c1ccncc1)N1CCC(O)(Cc2ccccc2)CC1,,healthy Japanese adults,"oral, 100 mg twice daily, day 7",,Cmax,204 ng/mL

# Excerpt of the above:
Structure (SMILES),test,system,setting,how to read,quantity,result
N#CCNC(=O)c1ccc(-c2ccnc(Nc3ccc(N4CCOCC4=O)cc3)n2)cc1,,healthy volunteers,"dose not given, added: rifampin multiple-dose",relative to: with rifampin over alone,Cmax geometric mean ratio,139%
